{"data": "Assay results from different studies", "note": "Lines come from different studies, so protocols differ."}
{"SMILES": "O=C1O[C@H]([C@@H](O)CO)C(O)=C1O", "read-out": "DPPH scavenging", "tested at": "500 µg/mL", "quantity": "inhibition", "value": "62.2%"}
{"SMILES": "COc1cc(-c2nc3ccccc3c(=O)n2Nc2ccc([N+](=O)[O-])cc2[N+](=O)[O-])ccc1OCc1cn(CC(=O)Nc2ccc(C)cc2C)nn1", "read-out": "DPPH scavenging", "technique": "absorbance", "tested at": "100 µM", "quantity": "inhibition", "value": "27.5%"}
{"SMILES": "Cc1cccc(N(O)N=Nc2ccc(S(=O)(=O)Nc3nccs3)cc2)c1", "read-out": "DPPH scavenging", "technique": "absorbance", "tested at": "240 µg/mL", "quantity": "inhibition", "value": "35.5%"}
{"SMILES": "COc1cc(-c2nc3ccccc3c(=O)n2Nc2ccc([N+](=O)[O-])cc2[N+](=O)[O-])ccc1OCc1cn(CC(=O)Nc2ccccc2)nn1", "read-out": "DPPH scavenging", "technique": "absorbance", "tested at": "100 µM", "quantity": "inhibition", "value": "16%"}
{"SMILES": "Cc1ccc(N(O)N=Nc2ccc(S(=O)(=O)Nc3cc(C)on3)cc2)cc1", "read-out": "DPPH scavenging", "technique": "absorbance", "tested at": "120 µg/mL", "quantity": "inhibition", "value": "22.8%"}
{"SMILES": "Oc1ccc(Br)cc1C=NCCN1CCOCC1", "read-out": "DPPH scavenging", "technique": "absorbance", "tested at": "200 µM", "quantity": "inhibition", "value": "40.3%"}
{"SMILES": "O=S(=O)(Nc1nccs1)c1ccc(N=NN(O)c2ccccc2)cc1", "read-out": "DPPH scavenging", "technique": "absorbance", "tested at": "240 µg/mL", "quantity": "inhibition", "value": "36.6%"}
{"SMILES": "CC(C)=CC1NCCc2cc(O)c(O)cc21 (stereo not shown)", "read-out": "ABTS scavenging", "time": "10 min", "notes": "dark", "quantity": "IC50", "value": "10.3 µM"}
{"SMILES": "COc1ccc(NC(=O)Cn2cc(COc3ccc(-c4nc5ccccc5c(=O)n4Nc4ccc([N+](=O)[O-])cc4[N+](=O)[O-])cc3OC)nn2)c(OC)c1", "read-out": "DPPH scavenging", "technique": "absorbance", "tested at": "100 µM", "quantity": "inhibition", "value": "24.7%"}
{"SMILES": "COc1ccc(C2NCCc3cc(O)c(O)cc32)cc1O (stereo not shown)", "read-out": "ABTS scavenging", "time": "10 min", "notes": "dark", "quantity": "IC50", "value": "13.5 µM"}
{"SMILES": "COc1ccc(NC(=O)Cn2cc(COc3ccc(-c4nc5ccccc5c(=O)n4Nc4ccc([N+](=O)[O-])cc4[N+](=O)[O-])cc3OC)nn2)cc1", "read-out": "DPPH scavenging", "technique": "absorbance", "tested at": "100 µM", "quantity": "inhibition", "value": "12.4%"}
{"SMILES": "CCCN(O)N=Nc1ccc(S(=O)(=O)Nc2nccs2)cc1", "read-out": "DPPH scavenging", "technique": "absorbance", "tested at": "300 µg/mL", "quantity": "inhibition", "value": "29.2%"}
{"SMILES": "CCCCCCCCCCCC1NCCc2cc(O)c(O)cc21 (stereo not shown)", "read-out": "ABTS scavenging", "time": "10 min", "notes": "dark", "quantity": "IC50", "value": "12.3 µM"}
{"note": "A few entries again:"}
{"SMILES": "Cc1cccc(N(O)N=Nc2ccc(S(=O)(=O)Nc3nccs3)cc2)c1", "read-out": "DPPH scavenging", "technique": "absorbance", "tested at": "240 µg/mL", "quantity": "inhibition", "value": "35.5%"}
